Results gathered from unrelated publications.
Compare with care: the assays were run in different laboratories.
PIP4K2C: Phosphatidylinositol 5-phosphate 4-kinase type-2 gamma (PIP4K2C, Homo sapiens, UniProt Q8TBX8)
Chain of UniProt Q8TBX8 (whole entry, looked up): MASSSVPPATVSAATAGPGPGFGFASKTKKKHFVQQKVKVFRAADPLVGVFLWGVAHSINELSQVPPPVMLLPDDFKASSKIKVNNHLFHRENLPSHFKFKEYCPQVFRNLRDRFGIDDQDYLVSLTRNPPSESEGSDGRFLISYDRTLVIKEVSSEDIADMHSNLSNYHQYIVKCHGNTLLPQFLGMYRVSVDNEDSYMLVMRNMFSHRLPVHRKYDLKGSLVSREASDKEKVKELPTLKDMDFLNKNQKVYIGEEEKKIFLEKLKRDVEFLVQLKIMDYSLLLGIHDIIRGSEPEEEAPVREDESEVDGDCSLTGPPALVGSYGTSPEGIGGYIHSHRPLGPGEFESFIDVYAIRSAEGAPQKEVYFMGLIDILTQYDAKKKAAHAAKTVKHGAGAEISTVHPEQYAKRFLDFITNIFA
rep papain-like protease: Replicase polyprotein 1ab, papain-like protease (rep, Porcine epidemic diarrhea virus, UniProt P0C6Y4)
NT5E: 5'-nucleotidase (NT5E, Homo sapiens, UniProt P21589)
Chain of UniProt P21589 (whole entry, looked up): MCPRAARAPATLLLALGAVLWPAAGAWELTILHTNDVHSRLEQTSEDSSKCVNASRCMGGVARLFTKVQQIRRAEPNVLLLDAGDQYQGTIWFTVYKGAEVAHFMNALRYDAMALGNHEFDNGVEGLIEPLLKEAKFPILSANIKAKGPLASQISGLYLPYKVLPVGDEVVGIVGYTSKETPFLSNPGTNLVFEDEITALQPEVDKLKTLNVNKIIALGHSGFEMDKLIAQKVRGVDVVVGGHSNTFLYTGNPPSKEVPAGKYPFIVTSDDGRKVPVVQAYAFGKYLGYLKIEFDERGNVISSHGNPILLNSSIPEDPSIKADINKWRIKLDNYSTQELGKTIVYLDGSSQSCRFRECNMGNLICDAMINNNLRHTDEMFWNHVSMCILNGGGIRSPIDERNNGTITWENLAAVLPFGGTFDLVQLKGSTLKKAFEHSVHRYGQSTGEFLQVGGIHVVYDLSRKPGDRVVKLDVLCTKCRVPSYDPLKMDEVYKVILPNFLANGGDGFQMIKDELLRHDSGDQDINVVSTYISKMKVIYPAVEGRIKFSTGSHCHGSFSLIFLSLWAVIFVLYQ
AMY2: Pancreatic alpha-amylase (AMY2, Sus scrofa, UniProt P00690)
Chain of UniProt P00690 (whole entry, looked up): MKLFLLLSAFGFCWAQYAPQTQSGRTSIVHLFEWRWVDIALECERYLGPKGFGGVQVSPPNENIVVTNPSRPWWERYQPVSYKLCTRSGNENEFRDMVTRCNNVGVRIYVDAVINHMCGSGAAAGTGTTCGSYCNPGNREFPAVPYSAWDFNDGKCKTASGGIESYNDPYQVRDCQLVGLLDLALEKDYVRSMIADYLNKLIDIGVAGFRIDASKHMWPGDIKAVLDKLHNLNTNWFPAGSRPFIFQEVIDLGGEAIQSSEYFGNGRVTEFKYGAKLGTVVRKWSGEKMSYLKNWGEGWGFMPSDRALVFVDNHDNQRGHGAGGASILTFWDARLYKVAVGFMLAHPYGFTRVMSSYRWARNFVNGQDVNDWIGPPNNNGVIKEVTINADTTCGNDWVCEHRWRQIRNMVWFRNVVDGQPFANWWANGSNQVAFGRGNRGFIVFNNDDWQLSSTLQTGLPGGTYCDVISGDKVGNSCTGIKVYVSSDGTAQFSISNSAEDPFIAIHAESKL
SLC22A11: Solute carrier family 22 member 11 (SLC22A11, Homo sapiens, UniProt Q9NSA0)
Chain of UniProt Q9NSA0 (whole entry, looked up): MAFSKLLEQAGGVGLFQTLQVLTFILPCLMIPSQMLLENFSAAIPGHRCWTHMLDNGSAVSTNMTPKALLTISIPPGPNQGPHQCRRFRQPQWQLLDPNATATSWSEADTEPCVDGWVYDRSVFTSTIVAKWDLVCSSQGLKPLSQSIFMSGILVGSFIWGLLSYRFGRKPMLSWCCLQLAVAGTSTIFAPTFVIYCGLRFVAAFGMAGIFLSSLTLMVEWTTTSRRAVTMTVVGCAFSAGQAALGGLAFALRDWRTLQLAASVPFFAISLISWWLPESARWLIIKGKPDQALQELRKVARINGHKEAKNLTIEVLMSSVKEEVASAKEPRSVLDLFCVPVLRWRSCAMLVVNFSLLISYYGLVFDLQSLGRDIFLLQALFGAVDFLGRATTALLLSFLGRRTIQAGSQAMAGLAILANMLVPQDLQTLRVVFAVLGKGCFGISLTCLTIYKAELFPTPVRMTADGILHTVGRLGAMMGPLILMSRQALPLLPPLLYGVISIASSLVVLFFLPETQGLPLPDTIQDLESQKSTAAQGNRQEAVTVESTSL
CDK7 with cyclin H: Cyclin-dependent kinase 7, with cyclin H (CDK7, Homo sapiens, UniProt P50613)
Chain of UniProt P50613 (whole entry, looked up): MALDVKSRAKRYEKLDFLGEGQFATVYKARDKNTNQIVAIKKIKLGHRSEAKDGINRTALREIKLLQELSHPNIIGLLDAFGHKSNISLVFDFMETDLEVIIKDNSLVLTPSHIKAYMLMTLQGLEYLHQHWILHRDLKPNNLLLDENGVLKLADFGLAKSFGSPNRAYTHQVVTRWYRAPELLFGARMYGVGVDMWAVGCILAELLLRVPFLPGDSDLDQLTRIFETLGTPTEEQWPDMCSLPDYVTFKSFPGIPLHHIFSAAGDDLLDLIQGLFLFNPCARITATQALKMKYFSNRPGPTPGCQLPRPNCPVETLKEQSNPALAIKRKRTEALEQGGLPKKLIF
Chain of UniProt P27338 (whole entry, looked up): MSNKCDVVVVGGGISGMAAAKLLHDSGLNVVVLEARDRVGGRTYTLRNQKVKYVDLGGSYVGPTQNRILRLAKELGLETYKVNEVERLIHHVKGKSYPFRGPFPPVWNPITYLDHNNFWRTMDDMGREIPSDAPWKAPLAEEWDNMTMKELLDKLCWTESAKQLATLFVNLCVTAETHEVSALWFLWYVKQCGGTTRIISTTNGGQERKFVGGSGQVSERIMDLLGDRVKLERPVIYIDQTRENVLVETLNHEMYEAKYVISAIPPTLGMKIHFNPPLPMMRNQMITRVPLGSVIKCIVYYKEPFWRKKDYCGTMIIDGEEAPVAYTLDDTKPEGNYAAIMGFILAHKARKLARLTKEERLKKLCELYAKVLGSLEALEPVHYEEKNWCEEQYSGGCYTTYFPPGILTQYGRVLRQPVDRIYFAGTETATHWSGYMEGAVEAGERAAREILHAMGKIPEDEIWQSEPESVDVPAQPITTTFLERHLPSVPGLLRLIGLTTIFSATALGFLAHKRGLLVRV
Chain of UniProt P05164 (whole entry, looked up): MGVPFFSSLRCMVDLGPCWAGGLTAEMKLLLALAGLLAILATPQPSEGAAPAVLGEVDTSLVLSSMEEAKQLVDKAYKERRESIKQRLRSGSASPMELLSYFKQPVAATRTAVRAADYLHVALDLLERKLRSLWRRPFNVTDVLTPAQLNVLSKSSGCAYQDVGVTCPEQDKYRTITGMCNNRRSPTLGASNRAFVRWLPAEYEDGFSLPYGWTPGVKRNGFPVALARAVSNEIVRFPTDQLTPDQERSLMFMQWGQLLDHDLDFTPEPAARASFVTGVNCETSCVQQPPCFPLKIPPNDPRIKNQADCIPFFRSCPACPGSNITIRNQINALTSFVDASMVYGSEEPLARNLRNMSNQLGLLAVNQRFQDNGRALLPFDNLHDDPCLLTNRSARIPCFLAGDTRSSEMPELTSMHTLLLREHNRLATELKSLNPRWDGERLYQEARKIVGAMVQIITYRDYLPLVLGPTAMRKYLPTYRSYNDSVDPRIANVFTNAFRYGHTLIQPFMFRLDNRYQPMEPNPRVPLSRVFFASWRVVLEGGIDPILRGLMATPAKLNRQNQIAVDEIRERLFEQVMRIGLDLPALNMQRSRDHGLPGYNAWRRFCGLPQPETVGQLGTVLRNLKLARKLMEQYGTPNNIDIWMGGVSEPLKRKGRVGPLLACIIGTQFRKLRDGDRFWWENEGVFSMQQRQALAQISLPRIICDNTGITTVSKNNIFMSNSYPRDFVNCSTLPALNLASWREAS
Chain of UniProt P23975 (whole entry, looked up): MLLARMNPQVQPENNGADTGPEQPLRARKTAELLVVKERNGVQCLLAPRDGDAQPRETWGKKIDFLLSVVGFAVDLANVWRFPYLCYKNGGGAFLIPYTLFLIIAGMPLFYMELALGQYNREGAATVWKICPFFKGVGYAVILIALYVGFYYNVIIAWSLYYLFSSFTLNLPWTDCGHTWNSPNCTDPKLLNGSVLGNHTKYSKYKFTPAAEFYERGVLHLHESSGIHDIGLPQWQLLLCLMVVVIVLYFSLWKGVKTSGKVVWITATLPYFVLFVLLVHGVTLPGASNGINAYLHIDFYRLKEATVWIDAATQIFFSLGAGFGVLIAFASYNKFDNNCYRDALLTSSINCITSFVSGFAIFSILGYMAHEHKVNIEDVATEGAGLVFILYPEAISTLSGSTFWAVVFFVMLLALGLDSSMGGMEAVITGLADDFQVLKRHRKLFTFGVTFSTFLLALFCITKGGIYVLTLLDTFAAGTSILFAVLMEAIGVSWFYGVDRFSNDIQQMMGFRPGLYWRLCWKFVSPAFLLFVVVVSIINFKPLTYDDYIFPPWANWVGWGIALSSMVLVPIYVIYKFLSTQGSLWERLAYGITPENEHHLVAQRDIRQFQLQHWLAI
Chain of UniProt O42275 (whole entry, looked up): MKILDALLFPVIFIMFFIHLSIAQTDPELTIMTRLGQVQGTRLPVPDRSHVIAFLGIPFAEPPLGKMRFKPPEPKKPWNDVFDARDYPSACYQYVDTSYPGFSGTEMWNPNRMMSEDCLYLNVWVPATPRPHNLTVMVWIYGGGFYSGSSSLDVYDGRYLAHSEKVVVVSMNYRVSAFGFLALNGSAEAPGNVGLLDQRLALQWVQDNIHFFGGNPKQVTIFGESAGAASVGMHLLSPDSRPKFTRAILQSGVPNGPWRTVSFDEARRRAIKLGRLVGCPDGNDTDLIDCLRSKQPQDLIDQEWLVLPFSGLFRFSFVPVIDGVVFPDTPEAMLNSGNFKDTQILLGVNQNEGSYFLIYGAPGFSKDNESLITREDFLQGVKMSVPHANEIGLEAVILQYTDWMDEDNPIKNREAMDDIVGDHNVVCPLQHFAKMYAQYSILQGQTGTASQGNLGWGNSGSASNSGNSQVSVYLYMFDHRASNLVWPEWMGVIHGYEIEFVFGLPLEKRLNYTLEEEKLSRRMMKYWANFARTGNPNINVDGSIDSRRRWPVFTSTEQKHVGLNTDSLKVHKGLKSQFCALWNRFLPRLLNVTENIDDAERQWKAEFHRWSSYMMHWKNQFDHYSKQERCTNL

CCCn1cnc2ccc(-c3ccc(NC(=O)CNCC)nc3)cc2c1=O — inhibition (PIP4K2C; binding, competition with immobilised ligand; 0.5 µM): 68%
CC[C@H](C)[C@H](NC(=O)[C@H](CCC(N)=O)NC(=O)[C@@H](NC(=O)[C@H](CCSC)NC(=O)[C@H](CCCCN)NC(=O)[C@H](CO)NC(=O)[C@@H](NC(=O)[C@H](CCSC)NC(=O)[C@H](CC(C)C)NC(=O)[C@H](CC(N)=O)NC(=O)[C@@H](NC(=O)[C@@H](NC(=O)[C@H](CO)NC(=O)[C@H](CC(C)C)NC(=O)[C@H](C)NC(=O)[C@H](CCCNC(=N)N)NC(=O)[C@H](CCC(=O)O)NC(=O)[C@H](Cc1ccc(O)cc1)NC(=O)[C@H](Cc1ccccc1)NC(=O)[C@H](C)NC(=O)[C@H](CC(N)=O)NC(=O)[C@@H](N)CCCCN)[C@@H](C)CC)[C@@H](C)CC)[C@@H](C)O)C(C)C)C(=O)N[C@@H](CC(N)=O)C(=O)N[C@H](C(=O)O)C(C)C — inhibition (Cyclin-dependent kinase 5, with p35 (CDK5, Homo sapiens, UniProt Q00535); enzyme activity, inhibitor, radiometric; 50 µM): 35%
CN1CC(Oc2cnc(C#N)cc2-c2ccn3nc(NC(=O)C4CC4)cc3c2)C1 — inhibition (Cyclin-dependent kinase 12, with cyclin K (CDK12, Homo sapiens, UniProt Q9NYV4); enzyme activity, inhibitor; 1 µM): -17%
CCCCCC(=O)Nc1ccc(-c2ccc3ncn(Cc4ccccc4)c(=O)c3c2)cn1 — inhibition (PIP4K2C; binding; 0.5 µM): < 80%
COc1cc(CNC(=O)c2c[nH]c3ccccc23)cc(Br)c1OC — inhibition (rep papain-like protease; enzyme activity, inhibitor, FRET; 10 µM): 16.5%
COC(=O)CNC(=O)CSc1nc(C)cc(C)c1C#N — inhibition (NT5E; enzyme activity, inhibitor; 10 µM): -10%
O=C(NCc1cc(O)c(O)c(Br)c1)c1ccc(OC(F)(F)F)cc1 — inhibition (Replicase polyprotein 1ab, main protease (rep, Porcine epidemic diarrhea virus, UniProt P0C6Y4); enzyme activity, inhibitor, FRET; 10 µM): 98.3%
Cc1cccc(N(O)N=Nc2ccc(S(=O)(=O)Nc3onc(C)c3C)cc2)c1 — inhibition (AMY2; enzyme activity, inhibitor; 300 µg/mL): 68.4%
CCOC(=O)c1ccc(NC(=O)CSc2nc(C)cc(-c3ccccc3)c2C#N)cc1 — inhibition (NT5E; enzyme activity, inhibitor; 10 µM): 56%
CCOc1nc2cccc(C(=O)O)c2n1Cc1ccc(-c2ccccc2-c2nc(=O)o[nH]2)cc1 — inhibition (SLC22A11; transporter uptake, inhibitor; 25 µM): 50 to 90%
CCC(CC(=O)NCc1cc(Br)c(OC)c(OC)c1)c1ccccc1 (centres unmarked) — inhibition (rep papain-like protease; enzyme activity, inhibitor, FRET; 10 µM): 29.6%
CCc1nn(C)c2nc(-c3ccc(C(=O)O)cc3)nc(NCc3ccc(F)cc3)c12 — inhibition (PDE4B (Homo sapiens, UniProt Q07343); enzyme activity, inhibitor, radiometric; 10 µM): 54.3%
Nc1c(C(=O)Nc2nccs2)sc2nc(-c3ccccc3)cc(C(F)(F)F)c12 — inhibition (NT5E; enzyme activity, inhibitor; 10 µM): 8%
CCCn1cnc2ccc(-c3ccc(NC(=O)CC(C)CC)nc3)cc2c1=O (centres unmarked) — inhibition (PIP4K2C; binding, competition with immobilised ligand; 0.5 µM): 98.4%
CCN(O)N=Nc1ccc(S(=O)(=O)Nc2cc(C)on2)cc1 — inhibition (AMY2; enzyme activity, inhibitor; 60 µg/mL): 31.6%
COc1cc(C2Oc3cc([C@H]4Oc5cc(O)cc(O)c5C(=O)[C@@H]4O)ccc3OC2CO)ccc1O (some centres unmarked) — inhibition (CDK7 with cyclin H; enzyme activity, inhibitor, ADP detection; 10 µM): 27%
CCN(O)N=Nc1ccc(S(=O)(=O)Nc2nccs2)cc1 — inhibition (AMY2; enzyme activity, inhibitor; 240 µg/mL): 52.6%
N#C[C@@]12C[C@@H]1[C@@H](n1cnc3c(Nc4ccccc4)nc(C#Cc4ccc(Cl)s4)nc31)[C@H](O)[C@@H]2O — inhibition (SLC6A2 (Homo sapiens, UniProt P23975); ligand displacement, radioligand; 10 µM): 63%
CNc1cc(Oc2cc(C(=O)Nc3cc(N4CCN(C)CC4)cc(C(F)(F)F)c3)ccc2C)ncn1 — inhibition (SGK3 (Homo sapiens, UniProt Q96BR1); target engagement in cells, inhibitor, chemoproteomics; Huh-7; 1 µM): -14.5%
C=C(C)[C@@H]1CC[C@]2(CO)CC[C@]3(C)[C@H](CC[C@@H]4[C@@]5(C)CC[C@H](O)C(C)(C)[C@@H]5CC[C@]43C)[C@@H]12 — inhibition (CDK7 with cyclin H; enzyme activity, inhibitor, ADP detection; 10 µM): 18.6%
COc1cccc(CN2CCC(CN3Cc4cc(OC)c(OC)cc4C3=O)CC2)n1 — inhibition (ache (Electrophorus electricus, UniProt O42275); enzyme activity, inhibitor; 1 µM): 10.8%
NC/C(=C\F)COc1cccc(Cn2c(=S)[nH]c(=O)c3[nH]cnc32)c1 — inhibition (AOC1 (Homo sapiens, UniProt P19801); enzyme activity, inhibitor; 0.1111 µM): 0.0962%
COc1ccc(C(=O)NCc2ccc(OC)c(OC)c2)cc1 — inhibition (rep papain-like protease; enzyme activity, inhibitor, FRET; 10 µM): 55.4%
COc1ccc(NC(=O)c2ccc3c(c2)C(=O)NC3=O)cc1OC — inhibition (MAOB (Homo sapiens, UniProt P27338); enzyme activity, inhibitor; 1 µM): < 5%
c1ccc2[nH]c(-c3cscn3)nc2c1 — inhibition (SLC22A11; transporter uptake, inhibitor; 25 µM): 81.3%
CCN(O)N=Nc1ccc(S(=O)(=O)Nc2onc(C)c2C)cc1 — inhibition (AMY2; enzyme activity, inhibitor; 240 µg/mL): 52.6%
COc1cc(CNC(=O)c2ccc3ccccc3c2)cc(Br)c1OC — inhibition (rep papain-like protease; enzyme activity, inhibitor, FRET; 10 µM): 1.77%
COc1ccc(Cl)cc1-c1cc(=O)[nH]c(=S)n1CC(N)=O — inhibition (Myeloperoxidase (MPO, Homo sapiens, UniProt P05164); enzyme activity, inhibitor, fluorescence; 3.333 µM): 97%
Cc1cc(NS(=O)(=O)c2ccc(N=NN(C)O)cc2)no1 — inhibition (AMY2; enzyme activity, inhibitor; 60 µg/mL): 15.8%
COc1cc(CNC(=O)c2sc3nc(-c4ccccc4)cc(C(F)(F)F)c3c2N)cc(OC)c1OC — inhibition (NT5E; enzyme activity, inhibitor; 10 µM): -8%
Cc1noc(NS(=O)(=O)c2ccc(N=NN(C)O)cc2)c1C — inhibition (AMY2; enzyme activity, inhibitor; 240 µg/mL): 63.2%
O=C(NCc1cc(O)c(O)c(Br)c1)c1ccc(Cl)s1 — inhibition (rep papain-like protease; enzyme activity, inhibitor, FRET; 10 µM): 104%

A few entries again:
COc1cc(CNC(=O)c2c[nH]c3ccccc23)cc(Br)c1OC — inhibition (rep papain-like protease; enzyme activity, inhibitor, FRET; 10 µM): 16.5%
COC(=O)CNC(=O)CSc1nc(C)cc(C)c1C#N — inhibition (NT5E; enzyme activity, inhibitor; 10 µM): -10%
O=C(NCc1cc(O)c(O)c(Br)c1)c1ccc(OC(F)(F)F)cc1 — inhibition (Replicase polyprotein 1ab, main protease (rep, Porcine epidemic diarrhea virus, UniProt P0C6Y4); enzyme activity, inhibitor, FRET; 10 µM): 98.3%
Cc1cccc(N(O)N=Nc2ccc(S(=O)(=O)Nc3onc(C)c3C)cc2)c1 — inhibition (AMY2; enzyme activity, inhibitor; 300 µg/mL): 68.4%
